Measured values of several laboratories.
A part holds a random share of what one study measured. Substitutions count along the parent as printed.
Chain of UniProt Q8N2K1 (whole entry, looked up): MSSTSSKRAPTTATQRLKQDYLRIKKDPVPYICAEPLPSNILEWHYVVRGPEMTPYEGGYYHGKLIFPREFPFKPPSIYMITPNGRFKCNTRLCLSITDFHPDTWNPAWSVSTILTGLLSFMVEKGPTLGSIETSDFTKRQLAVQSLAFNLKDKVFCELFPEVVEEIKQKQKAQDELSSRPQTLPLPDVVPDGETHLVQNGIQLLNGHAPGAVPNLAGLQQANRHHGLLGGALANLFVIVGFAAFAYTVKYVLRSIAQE
Chain of UniProt Q9H832 (whole entry, looked up): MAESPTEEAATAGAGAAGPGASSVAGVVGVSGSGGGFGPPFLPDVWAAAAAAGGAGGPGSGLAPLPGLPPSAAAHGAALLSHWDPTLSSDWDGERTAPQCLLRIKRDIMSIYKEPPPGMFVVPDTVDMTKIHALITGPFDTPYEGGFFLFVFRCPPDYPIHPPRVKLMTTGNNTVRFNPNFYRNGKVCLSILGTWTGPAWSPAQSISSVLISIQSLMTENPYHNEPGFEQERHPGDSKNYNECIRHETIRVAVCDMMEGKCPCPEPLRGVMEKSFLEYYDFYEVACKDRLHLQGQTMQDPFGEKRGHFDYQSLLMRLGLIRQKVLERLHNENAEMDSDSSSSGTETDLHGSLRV
Chain of UniProt Q9C0C9 (whole entry, looked up): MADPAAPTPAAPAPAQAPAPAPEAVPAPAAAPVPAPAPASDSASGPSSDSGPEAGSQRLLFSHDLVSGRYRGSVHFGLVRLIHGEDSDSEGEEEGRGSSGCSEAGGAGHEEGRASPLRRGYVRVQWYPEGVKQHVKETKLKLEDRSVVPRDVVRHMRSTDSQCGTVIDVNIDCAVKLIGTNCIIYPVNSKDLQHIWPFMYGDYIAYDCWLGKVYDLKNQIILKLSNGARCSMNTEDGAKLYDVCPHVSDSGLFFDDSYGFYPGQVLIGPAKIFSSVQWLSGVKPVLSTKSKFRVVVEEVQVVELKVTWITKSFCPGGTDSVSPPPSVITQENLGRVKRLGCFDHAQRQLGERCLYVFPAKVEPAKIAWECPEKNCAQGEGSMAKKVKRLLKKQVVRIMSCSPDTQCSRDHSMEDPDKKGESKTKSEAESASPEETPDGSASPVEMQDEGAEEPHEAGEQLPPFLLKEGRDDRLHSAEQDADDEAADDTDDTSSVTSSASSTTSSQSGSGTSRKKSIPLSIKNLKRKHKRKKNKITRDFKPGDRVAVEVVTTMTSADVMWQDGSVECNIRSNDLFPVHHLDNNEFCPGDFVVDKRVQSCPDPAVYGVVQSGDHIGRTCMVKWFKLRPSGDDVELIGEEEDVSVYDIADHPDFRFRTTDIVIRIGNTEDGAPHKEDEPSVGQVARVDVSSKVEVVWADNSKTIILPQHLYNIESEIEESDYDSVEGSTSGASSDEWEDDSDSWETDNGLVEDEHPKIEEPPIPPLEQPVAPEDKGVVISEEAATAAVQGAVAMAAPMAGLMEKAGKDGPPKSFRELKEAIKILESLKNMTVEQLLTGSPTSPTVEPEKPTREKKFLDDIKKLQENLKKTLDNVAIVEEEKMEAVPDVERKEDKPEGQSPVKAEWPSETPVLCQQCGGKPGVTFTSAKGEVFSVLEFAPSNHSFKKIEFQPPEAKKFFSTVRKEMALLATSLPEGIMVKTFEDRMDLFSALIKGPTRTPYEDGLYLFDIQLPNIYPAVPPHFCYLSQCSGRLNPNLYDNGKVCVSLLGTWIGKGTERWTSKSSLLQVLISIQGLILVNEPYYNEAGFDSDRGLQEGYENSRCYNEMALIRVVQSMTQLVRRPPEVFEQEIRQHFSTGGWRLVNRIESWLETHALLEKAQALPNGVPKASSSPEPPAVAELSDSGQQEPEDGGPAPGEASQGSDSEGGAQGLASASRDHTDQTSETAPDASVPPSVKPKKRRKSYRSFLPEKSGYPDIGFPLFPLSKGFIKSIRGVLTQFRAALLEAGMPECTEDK
Chain of UniProt Q969T4 (whole entry, looked up): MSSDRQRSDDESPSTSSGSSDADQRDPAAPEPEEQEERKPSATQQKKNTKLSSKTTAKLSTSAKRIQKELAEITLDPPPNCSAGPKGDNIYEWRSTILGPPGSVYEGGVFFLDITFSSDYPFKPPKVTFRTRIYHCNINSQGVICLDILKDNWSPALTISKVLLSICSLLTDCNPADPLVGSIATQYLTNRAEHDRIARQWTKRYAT
Chain of UniProt P68036 (whole entry, looked up): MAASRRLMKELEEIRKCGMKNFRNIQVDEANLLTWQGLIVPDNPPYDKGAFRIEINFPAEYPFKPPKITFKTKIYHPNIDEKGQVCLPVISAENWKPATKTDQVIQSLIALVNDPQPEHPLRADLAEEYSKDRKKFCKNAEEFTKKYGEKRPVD
Chain of UniProt Q9Y385 (whole entry, looked up): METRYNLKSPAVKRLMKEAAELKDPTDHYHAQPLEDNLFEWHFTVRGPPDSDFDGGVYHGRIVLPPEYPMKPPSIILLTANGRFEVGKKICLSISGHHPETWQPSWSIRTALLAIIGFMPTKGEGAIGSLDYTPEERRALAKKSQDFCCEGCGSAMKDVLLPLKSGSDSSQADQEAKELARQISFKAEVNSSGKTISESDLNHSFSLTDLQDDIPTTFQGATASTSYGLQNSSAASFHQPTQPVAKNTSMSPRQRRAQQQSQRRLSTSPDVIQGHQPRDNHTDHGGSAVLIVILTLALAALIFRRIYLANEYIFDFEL
Chain of UniProt Q7Z7E8 (whole entry, looked up): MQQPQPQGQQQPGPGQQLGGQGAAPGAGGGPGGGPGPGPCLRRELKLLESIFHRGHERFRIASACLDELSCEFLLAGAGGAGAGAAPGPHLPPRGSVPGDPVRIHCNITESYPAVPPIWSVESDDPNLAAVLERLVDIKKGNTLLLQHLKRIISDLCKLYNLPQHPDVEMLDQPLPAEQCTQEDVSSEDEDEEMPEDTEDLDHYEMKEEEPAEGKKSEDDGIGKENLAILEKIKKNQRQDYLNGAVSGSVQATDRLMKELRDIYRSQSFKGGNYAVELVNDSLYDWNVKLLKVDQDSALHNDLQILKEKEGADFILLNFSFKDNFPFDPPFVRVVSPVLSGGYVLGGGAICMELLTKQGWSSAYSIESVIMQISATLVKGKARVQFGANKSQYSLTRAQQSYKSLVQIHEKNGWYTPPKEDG

Study 1 — method: aptamer microarray, sandwich; molecule type: DNA with 2'F-ANA; medium: in vitro; tested at: 200 nM; added: Cy3 exosite-II aptamer, 400 nM; direction: higher = stronger binding; strand: GGTTGGTGTGGTTGG
Target: Prothrombin, mature alpha-thrombin (F2, Homo sapiens, UniProt P00734)
Notes: whole 15-mer aptamer, many near background
Modification	mean fluorescence intensity [a.u.]
2'F-ANA at 1 2 4 6 8 9 10 11 12 14	87
2'F-ANA at 2 3 4 6 13	446
2'F-ANA at 1 2 4 5 10 11 12 13 14	80.4
2'F-ANA at 1 9 11 13	143
2'F-ANA at 4 5 6 9 10 11 14 15	80.6
2'F-ANA at 4 6 13	188
2'F-ANA at 2 3 4 6 7 8 11 14	260
2'F-ANA at 1 2 3 6 8 9 10	62.4
2'F-ANA at 1 2 3 4 7 8 10 11 12 13 15	100
2'F-ANA at 5 6 8 12 14 15	49.2
2'F-ANA at 3 4 9 10 11 12 15	351
2'F-ANA at 4 9 12 14	116
2'F-ANA at 3 6 7 8 9 10 12 14 15	403
2'F-ANA at 3 4 6 7 12 13 15	634
2'F-ANA at 1 3 5 6 7 8 15	71.7
2'F-ANA at 2 3 4 5 6 7 9 11 14	50.3
2'F-ANA at 4 7 10 12 13 14 15	61.5
2'F-ANA at 2 5 6 8 14 15	53
2'F-ANA at 2 3 4 11 12	764
2'F-ANA at 3 8 13 15	850
2'F-ANA at 1 3 4 6 7 10 12	81.9

Study 2 — method: RNA Bind-n-Seq; molecule type: RNA; medium: in vitro; tested at: 200 nM; notes: whole 134-nt RNA, ends assumed; added: 150 mM LiCl; baseline: input library; direction: higher = stronger binding; each molecule: 7-deaza-guanosine replaces G
Target: Ras GTPase-activating protein-binding protein 1, full length (G3BP1, Homo sapiens, UniProt Q13283)
Chain of UniProt Q13283 (whole entry, looked up): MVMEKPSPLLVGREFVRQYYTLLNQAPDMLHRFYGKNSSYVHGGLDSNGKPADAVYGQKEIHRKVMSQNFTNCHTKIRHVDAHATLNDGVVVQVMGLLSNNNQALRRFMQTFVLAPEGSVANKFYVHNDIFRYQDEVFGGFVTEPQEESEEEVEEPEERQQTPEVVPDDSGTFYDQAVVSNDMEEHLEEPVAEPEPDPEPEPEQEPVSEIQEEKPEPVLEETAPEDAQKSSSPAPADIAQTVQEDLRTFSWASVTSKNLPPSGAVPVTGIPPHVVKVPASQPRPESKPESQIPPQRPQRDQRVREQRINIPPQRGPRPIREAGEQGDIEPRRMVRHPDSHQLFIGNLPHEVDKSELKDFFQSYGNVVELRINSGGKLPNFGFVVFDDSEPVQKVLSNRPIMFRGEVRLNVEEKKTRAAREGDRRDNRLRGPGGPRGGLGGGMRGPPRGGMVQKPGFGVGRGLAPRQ
Shared flanks, not repeated: GGGAGUUCUACAGUCCGACGAUC … UGGAAUUCUCGGGUGUCAAGG
Strand	log2 enrichment
UCAAGUCCUGUGCUACACAUCGUAUGUACCGAAUCGGGAAGGGAAGGGGAAGGGGAAAGUAUUAUGUUACGCCGUUCGGAUCUGCACUUC	-0.0382
AGUCCUGUGCUACACAUCGUAUGUACCGAAUCGGGGUGGGGUUUGGGGAAAAAGGGGAAAGUAUUAUGUUACGCCGUUCGGAUCUGCACU	-0.519
CAAGUCCUGUGCUACACAUCGUAUGUACCGAAUCGGCCCGGGGCCCGGGCCCGGGGAAAGUAUUAUGUUACGCCGUUCGGAUCUGCACUU	-1.08
AGUCCUGUGCUACACAUCGUAUGUACCGAAUCGGGUUUGGGAAAAAGGGUUUUUGGGAAAGUAUUAUGUUACGCCGUUCGGAUCUGCACU	-2.07
AAGUCCUGUGCUACACAUCGUAUGUACCGAAUCGGGAAAGGGAAAGGGUUUUUGGGAAAGUAUUAUGUUACGCCGUUCGGAUCUGCACUU	-1.15
GUCCUGUGCUACACAUCGUAUGUACCGAAUCGGGAGGGUUUUUUUGGGAAAAAAAGGGAAAGUAUUAUGUUACGCCGUUCGGAUCUGCAC	-0.509
UUCCCCUGGAGGGCGCCUCCAUCCUUGGAGGCCUAGUGCCGUCGGAGAGAGAGCGGGAGCCGCGGACAGAGACGCGUGCGCAAUUCGGAG	-0.471
UGGGAGGUGGAUUUUGUUUAUUCUUUUAGCUCAUUUCCAGGGGUGGGAAUUUUUUUUUAAUAUGUGUCAUGAAUAAAGUUGUUUUUGAAA	-0.0543

Study 3 — method: yeast two-hybrid; medium: yeast; notes: mostly zero background; baseline: not given; direction: higher = stronger interaction
Sequence: KEQLEKHNDICAICYQDMKSAVITPCSHFFHAGCLKKWLYVQETCPLCHCHLKNSSQLP (RNF145 RING domain (UniProt Q96MT1))
target	lacZ reporter activity
UBE2L3 UBC core domain (UniProt P68036)	0
UBE2Z UBC core domain (UniProt Q9H832)	0
UBE2I UBC core domain (UniProt P63279)	0
UBE2O UBC core domain (UniProt Q9C0C9)	0
BIRC6 UBC core domain (UniProt Q9NR09)	0
UBE2E3 UBC core domain (UniProt Q969T4)	0
UBE2J2 UBC core domain (UniProt Q8N2K1)	0
UBE2J1 UBC core domain (UniProt Q9Y385)	0
UBE2Q1 UBC core domain (UniProt Q7Z7E8)	0

Study 4 — method: DHFR PCA, dose-response; medium: yeast; notes: Hill fit, mean, not affinity; added: (+)-ABA, dose series; direction: lower = more sensitive
Target: ABI1, truncated, D143A, DHFR fusion (Arabidopsis thaliana, UniProt P49597)
Starting sequence: PYL1, truncated, DHFR fusion (Arabidopsis thaliana, UniProt Q8VZS8); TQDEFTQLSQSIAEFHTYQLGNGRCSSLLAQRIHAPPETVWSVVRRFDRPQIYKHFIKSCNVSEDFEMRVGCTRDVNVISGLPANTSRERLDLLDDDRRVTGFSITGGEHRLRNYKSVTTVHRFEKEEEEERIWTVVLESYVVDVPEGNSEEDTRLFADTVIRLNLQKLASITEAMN
Change	ABA EC50
E64R	3.51 µM
R49V	9.02 µM
F66E	5.83 µM
A13T	2.66 µM
D3E	6.66 µM
W134A	4.3 µM
K126T	1.44 µM
S11E	1.58 µM
N22K	4.14 µM
T17K	10.2 µM
L94R	312 µM
M68C	2.86 µM
D3L	5.85 µM
Q167F	12.5 µM
T160E	340 µM
V118T	1.64 µM
V118R	2.08 µM
S11I	2.71 µM
E129W	5.2 µM
A170S	8.64 µM
N61C	2.66 µM
V62D	735 µM
T119C	4.73 µM
E64L	5.04 µM
E151L	5.05 µM

Study 5 — target: CCND1, cyclin fold, Cln2 fusion (human); method: yeast growth competition, sequencing; medium: yeast; notes: strong parent motif; baseline: not given; direction: higher = stronger binding
Starting sequence: RBL1 docking peptide (human); GSAKRRLFGEDPP; partner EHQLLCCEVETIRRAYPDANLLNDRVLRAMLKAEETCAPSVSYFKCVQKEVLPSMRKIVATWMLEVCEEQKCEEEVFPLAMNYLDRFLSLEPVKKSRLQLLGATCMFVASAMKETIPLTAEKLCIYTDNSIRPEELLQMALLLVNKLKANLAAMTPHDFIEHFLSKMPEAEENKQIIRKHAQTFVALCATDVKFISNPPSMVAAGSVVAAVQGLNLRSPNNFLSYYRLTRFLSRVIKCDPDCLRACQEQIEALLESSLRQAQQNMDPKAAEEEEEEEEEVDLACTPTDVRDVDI
Change	normalised enrichment score
GYAKRRLFGEDPP [S2Y]	0.754
MSAKRRLFGEDPP [G1M]	1.51
GSAQRRLFGEDPP [K4Q]	0.859
GSAKFRLFGEDPP [R5F]	0.692
GSAKRRLFGEDPN [P13N]	2.02
GSAKDRLFGEDPP [R5D]	1.04
GIAKRRLFGEDPP [S2I]	0.908
GSAKRRLFGEDPV [P13V]	2.48
GSAKRRLFGSDPP [E10S]	1.27
GHAKRRLFGEDPP [S2H]	1.44
GSAKRRLKGEDPP [F8K]	0.379
GSAKRRYFGEDPP [L7Y]	0.324
GSAKRRLHGEDPP [F8H]	0.247
GNAKRRLFGEDPP [S2N]	1.75
GSAKRRHFGEDPP [L7H]	0.013
GSAKRRLFMEDPP [G9M]	2.77
GSAKRRLFGENPP [D11N]	1.14
GSWKRRLFGEDPP [A3W]	0.602
GSAKRALFGEDPP [R6A]	0.904

Repeated from above (study 4):
Change	ABA EC50
F66E	5.83 µM
A13T	2.66 µM
D3E	6.66 µM
W134A	4.3 µM
K126T	1.44 µM
S11E	1.58 µM
N22K	4.14 µM
